Assay results gathered from unrelated publications.
Protocols differ between the studies behind these lines. Numbers after ± are the reported error.
Sequence of UniProt P09619 (whole entry, looked up): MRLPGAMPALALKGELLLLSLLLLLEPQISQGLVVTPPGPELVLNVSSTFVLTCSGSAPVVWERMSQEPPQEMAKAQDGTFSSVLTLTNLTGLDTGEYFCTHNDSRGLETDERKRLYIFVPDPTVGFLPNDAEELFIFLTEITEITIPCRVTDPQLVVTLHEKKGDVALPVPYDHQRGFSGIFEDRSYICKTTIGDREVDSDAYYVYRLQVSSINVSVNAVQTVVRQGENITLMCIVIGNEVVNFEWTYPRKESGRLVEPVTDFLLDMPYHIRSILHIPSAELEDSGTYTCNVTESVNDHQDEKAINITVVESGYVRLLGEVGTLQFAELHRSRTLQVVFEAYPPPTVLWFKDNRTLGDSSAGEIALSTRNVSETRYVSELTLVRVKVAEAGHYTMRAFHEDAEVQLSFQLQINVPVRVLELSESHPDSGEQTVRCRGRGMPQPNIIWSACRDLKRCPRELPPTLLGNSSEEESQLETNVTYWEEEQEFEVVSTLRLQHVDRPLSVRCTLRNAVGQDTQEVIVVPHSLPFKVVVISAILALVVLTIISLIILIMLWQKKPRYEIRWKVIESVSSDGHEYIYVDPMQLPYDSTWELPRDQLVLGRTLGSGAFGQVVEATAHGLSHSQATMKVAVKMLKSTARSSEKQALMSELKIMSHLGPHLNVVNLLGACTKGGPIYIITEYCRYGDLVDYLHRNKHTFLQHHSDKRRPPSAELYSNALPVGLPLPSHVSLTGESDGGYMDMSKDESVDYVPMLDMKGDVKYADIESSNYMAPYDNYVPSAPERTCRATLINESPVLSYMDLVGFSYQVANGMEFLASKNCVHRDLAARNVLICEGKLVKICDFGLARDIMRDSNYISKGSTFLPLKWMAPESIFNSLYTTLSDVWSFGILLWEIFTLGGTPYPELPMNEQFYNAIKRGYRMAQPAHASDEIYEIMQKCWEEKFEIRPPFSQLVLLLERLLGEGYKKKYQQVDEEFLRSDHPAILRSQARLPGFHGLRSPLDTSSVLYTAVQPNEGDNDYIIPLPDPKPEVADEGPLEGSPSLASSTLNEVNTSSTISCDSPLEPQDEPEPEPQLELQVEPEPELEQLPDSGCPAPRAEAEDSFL
Sequence of UniProt Q8TCC7 (whole entry, looked up): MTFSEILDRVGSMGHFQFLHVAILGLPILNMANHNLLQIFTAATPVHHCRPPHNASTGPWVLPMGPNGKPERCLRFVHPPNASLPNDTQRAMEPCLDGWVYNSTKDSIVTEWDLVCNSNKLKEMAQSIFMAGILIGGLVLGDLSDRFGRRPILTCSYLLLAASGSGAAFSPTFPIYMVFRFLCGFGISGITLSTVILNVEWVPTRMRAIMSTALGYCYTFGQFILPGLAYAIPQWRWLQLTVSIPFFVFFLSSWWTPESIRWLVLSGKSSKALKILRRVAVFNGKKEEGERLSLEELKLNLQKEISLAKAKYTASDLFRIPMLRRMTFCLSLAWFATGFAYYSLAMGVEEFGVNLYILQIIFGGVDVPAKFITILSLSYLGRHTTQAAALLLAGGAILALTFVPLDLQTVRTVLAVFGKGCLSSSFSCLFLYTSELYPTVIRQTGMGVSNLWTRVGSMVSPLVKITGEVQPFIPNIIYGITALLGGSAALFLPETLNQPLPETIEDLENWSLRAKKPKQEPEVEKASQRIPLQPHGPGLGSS

Structure (SMILES) = CC(C)C[C@@H](NC(=O)[C@@H](CCCNC(=N)N)NC(=O)[C@@H](Cc1c[nH]cn1)NC(=O)[C@@H](Cc1c[nH]c2ccccc12)NC(=O)[C@@H](Cc1c[nH]cn1)NC(=O)[C@@H](Cc1ccccc1)NC(=O)[C@H](NC(=O)[C@@H](Cc1ccc(O)cc1)NC(=O)CNC(=O)CNC(=O)CCOCCOCCOCCNC(=O)CN1CCN(CC(=O)O)CCN(CC(=O)O)CC1)[C@H](C)O)C(=O)N[C@H](CC(N)=O)C(=O)N1CCC[C@@H]1C(=O)O [gallium-68 labelled]; system = C57BL/6 mice, male, blood; setting = intravenous, 1.85 MBq, 60 min, together with: blocking antibody; measurement = tissue uptake; value = 0.94 ± 0.34 %ID/g
Structure (SMILES) = CSCC[C@H](NC(=O)CNC(=O)[C@H](CCCCN)NC(=O)[C@H](CC(C)C)NC(=O)[C@@H]1CCCN1C(=O)[C@H](CO)NC(=O)[C@H](Cc1c[nH]cn1)NC(=O)[C@H](Cc1c[nH]c2ccccc12)NC(=O)[C@H](CCCNC(=N)N)NC(=O)[C@H](CC(C)C)NC(=O)[C@H](CCCNC(=N)N)NC(=O)[C@H](Cc1c[nH]c2ccccc12)NC(=O)[C@H](CS)NC(=O)CCCCCNC(=O)CN1CCN(CC(=O)O)CCN(CC(=O)O)CCN(CC(=O)O)CC1)C(=O)O [copper-64 labelled]; test = ex vivo biodistribution; system = BALB/c nude mice, muscle; setting = intravenous, dose not given, 1 h, Huh-7 tumour-bearing; measurement = tissue uptake; value = 0.58 %ID/g
Structure (SMILES) = O=C([O-])CNC(=O)CN1CCN(CC(=O)NCC(=O)[O-])CCN(CC(=O)NCC(=O)[O-])CCN(CC(=O)NCC(=O)[O-])CC1.[177Lu+3]; system = Sprague-Dawley rat, blood; setting = intravenous (tail vein), dose not given, 2 h; measurement = tissue uptake; value = 0.02 ± 0.005 % injected dose/g
Structure (SMILES) = CS(C)(=O)=Nc1ccc(-c2ccc(-c3nc4cc(O[C@@H]5CO[C@H]6[C@@H]5OC[C@H]6O)[nH]c4cc3F)cc2)cc1; target or system = PDGFRB (Homo sapiens, UniProt P09619); test = enzyme activity, inhibitor; setting = 10 µM; measurement = inhibition; value = 6%
Structure (SMILES) = Cc1cc(-c2ccc3ccccc3c2)nnc1NCCN1CCN(C)CC1; target or system = SLC22A8 (Homo sapiens, UniProt Q8TCC7); test = transporter uptake, inhibitor; setting = 10 µM; measurement = inhibition; value = 0%
Structure (SMILES) = CC[C@H](C)[C@H](NC(=O)[C@H](CCCCN)NC(=O)CNC(=O)[C@H](CC(C)C)NC(=O)[C@H](Cc1ccccc1)NC(=O)[C@H](CCCCN)NC(=O)[C@H](CO)NC(=O)[C@H](Cc1ccccc1)NC(=O)[C@H](Cc1c[nH]c2ccccc12)NC(=O)[C@H](CCC(N)=O)NC(=O)[C@@H](NC(=O)[C@H](Cc1ccccc1)NC(=O)CCCCCNC(=O)CN1CCN(CC(=O)O)CCN(CC(=O)O)CCN(CC(=O)O)CC1)C(C)C)C(=O)N[C@@H](CCC(=O)O)C(=O)N1CCC[C@H]1C(=O)N[C@@H](CC(=O)O)C(=O)N[C@H](C(=O)N[C@@H](CO)C(=O)N[C@@H](CCC(N)=O)C(=O)N[C@H](C(=O)N[C@@H](CCC(N)=O)C(=O)N[C@@H](CC(=O)O)C(=O)N1CCC[C@H]1C(=O)N[C@@H](CC(N)=O)C(=O)N[C@@H](CC(=O)O)C(=O)N[C@@H](CCC(N)=O)C(=O)N[C@@H](Cc1ccc(O)cc1)C(=O)N[C@@H](CCC(=O)O)C(=O)N1CCC[C@H]1C(=O)N[C@@H](Cc1ccccc1)C(=O)O)C(C)C)C(C)C [copper-64 labelled]; system = C57BL/6 mice, male, naive, white fat; setting = 0.5 h; measurement = tissue uptake; value = 0.97 ± 0.5 %ID/g
Structure (SMILES) = Cc1ccccc1-c1ccc(-c2nc(-c3ccc(CN(C)CCCC(=O)O)c([18F])c3)no2)cc1C(F)(F)F; system = Sprague Dawley rats, male, pancreas; setting = 60 min; measurement = tissue uptake; value = 0.26 ± 0.1 %ID/g
Structure (SMILES) = CC[C@H](C)[C@H](NC(=O)[C@@H](Cc1c[nH]c2ccccc12)NC(=O)[C@@H]1CCCN1C(=O)[C@H](CCCCN)NC(=O)[C@H](CCCCN)NC(=O)CCNC(=O)CCNC(=O)CN1CCN(CC(=O)O)CCN(CC(=O)O)CCN(CC(=O)O)CC1)C(=O)N[C@@H](C[Si](C)(C)C)C(=O)O [gallium-68 labelled]; system = nude mouse HT-29 xenograft, heart; setting = 90 min; measurement = tissue uptake; value = 0.3 ± 0.28 %ID/g
Structure (SMILES) = CC[C@H](C)[C@H](NC(=O)[C@H](CCCNC(=N)N)NC(=O)[C@H](CCCCN)NC(=O)[C@H](Cc1ccc(O)cc1)NC(=O)[C@H](CC(=O)O)NC(=O)[C@H](C)NC(=O)CNC(=O)CCOCCOCCOCCNC(=O)CN1CCN(CC(=O)O)CCN(CC(=O)O)CCN(CC(=O)O)CC1)C(=O)N[C@H](C(=O)N[C@@H](CC(C)C)C(=O)N[C@@H](CCCCN)C(=O)N[C@H](C(=O)N[C@@H](CC(N)=O)C(N)=O)C(C)C)[C@@H](C)O [copper-64 labelled]; test = ex vivo gamma counting; system = C57BL/6J male mice, B16-F10 tumour, testis; setting = intravenous, 1.85 MBq, 100 min; measurement = tissue uptake; value = 0.533 ± 0.211 %ID/g
Structure (SMILES) = CN1Cc2cc(Cl)ccc2-n2c(nnc2C2CCN(c3cccc([18F])n3)CC2)C1; system = C57BL/6 mouse male, pancreas; setting = intravenous, 3.7 MBq, 30 min; measurement = tissue uptake; value = 10.1 ± 5.55 %ID/g
Structure (SMILES) = O=C1NC2(CC2)COc2ncc(F)cc2[C@H]2COCCN2c2ccn3ncc1c3n2; system = Sprague-Dawley rat, male, thymus; setting = oral, 10 mg/kg/day, 4 weeks, end of treatment; measurement = organ-to-brain weight ratio; value = 34.2 ± 5.11%
Structure (SMILES) = CC(C)[C@H]1NC(=O)C[C@H]2/C=C/CCSSC[C@@H](NC1=O)C(=O)N[C@H](Cc1cccc3ccccc13)C(=O)NCC(=O)O2; target or system = EGFR (Homo sapiens, UniProt P00533, L858R/T790M); test = enzyme activity, inhibitor; setting = 10 µM; measurement = inhibition; value = -0.6%
Structure (SMILES) = CC[C@H](C)[C@H](NC(=O)[C@H](CCCNC(=N)N)NC(=O)[C@H](CCCCN)NC(=O)[C@H](Cc1ccc(O)cc1)NC(=O)[C@H](CC(=O)O)NC(=O)[C@H](C)NC(=O)CNC(=O)CCOCCOCCOCCNC(=O)CN1CCN(CC(=O)O)CCN(CC(=O)O)CCN(CC(=O)O)CC1)C(=O)N[C@H](C(=O)N[C@H](C(=O)N[C@@H](CCCCN)C(=O)N[C@H](C(=O)N[C@@H](CC(N)=O)C(N)=O)C(C)C)C(C)C)[C@@H](C)O [copper-64 labelled]; test = ex vivo gamma counting; system = C57BL/6J male mice, B16-F10 tumour, pancreas; setting = intravenous, 1.85 MBq, 5 min; measurement = tissue uptake; value = 1.59 ± 0.056 %ID/g
Structure (SMILES) = COc1ccccc1-c1n[nH]c2nc(NC3CCN(C(=O)Cc4ccc(F)cc4F)CC3)ncc12; test = bead binding, competition bead pull-down, item: LINJ.36.5160; system = Leishmania donovani axenic amastigote extract; setting = 10 µM; scale = reference: vehicle; measurement = relative abundance; value = 0.68
Structure (SMILES) = C[C@H](O)[C@@H](NC(=O)[C@H]1CCCN1C(=O)[C@@H](CCCCN)NC(=O)[C@@H](CO)NC(=O)[C@@H](Cc1ccc(O)cc1)NC(=O)[C@@H](CC(N)=O)NC(=O)CCOCCOCCOCCNC(=O)CN1CCN(CC(=O)O)CCN(CC(=O)O)CCN(CC(=O)O)CC1)C(=O)N[C@H](CC(=O)O)C(=O)N[C@H](CCCNC(=N)N)C(=O)N[C@H](CCC(N)=O)C(=O)N[C@H](Cc1ccc(O)cc1)C(=O)N[C@H](Cc1c[nH]cn1)C(=O)N[C@H](Cc1ccccc1)C(N)=O [gallium-68 labelled]; system = BALB/c nude mice U-87 MG tumour, pancreas; setting = intravenous, 1.85 MBq, 2 h, radiolabelled; measurement = tissue uptake; value = 0.13 ± 0.03 %ID/g
Structure (SMILES) = CCCC[C@H]1C(=O)N(C)[C@@H](CCCC)C(=O)N[C@@H](CCCNC(=O)CN2CCN(CC(=O)O)CCN(CC(=O)O)CCN(CC(=O)O)CC2)C(=O)N[C@H](C(=O)NCC(N)=O)CSCC(=O)N[C@@H](Cc2ccc(O)cc2)C(=O)N(C)[C@@H](C)C(=O)N[C@@H](CC(N)=O)C(=O)N2CCC[C@H]2C(=O)N[C@@H](Cc2c[nH]cn2)C(=O)N[C@@H](CC(C)C)C(=O)N(C)CC(=O)N[C@@H](Cc2c[nH]c3ccccc23)C(=O)N[C@@H](CO)C(=O)N[C@@H](Cc2c[nH]c3ccccc23)C(=O)N1C [gallium-68 labelled]; system = NOD/SCID mice with CHO-hPD-L1 xenograft, stomach; setting = 10 min post injection; measurement = tissue uptake; value = 2.94 ± 0.26 %ID/g

For quick reference, copied from above:
Structure (SMILES) = Cc1cc(-c2ccc3ccccc3c2)nnc1NCCN1CCN(C)CC1; target or system = SLC22A8 (Homo sapiens, UniProt Q8TCC7); test = transporter uptake, inhibitor; setting = 10 µM; measurement = inhibition; value = 0%
